# Experimental data pooled from the literature.
# Protocols differ between the studies behind these lines.
# Target: Tyrosine-protein kinase JAK3 (JAK3, Homo sapiens, UniProt P52333)
# Mode: inhibitor
# One construct used (P52333 1-1124): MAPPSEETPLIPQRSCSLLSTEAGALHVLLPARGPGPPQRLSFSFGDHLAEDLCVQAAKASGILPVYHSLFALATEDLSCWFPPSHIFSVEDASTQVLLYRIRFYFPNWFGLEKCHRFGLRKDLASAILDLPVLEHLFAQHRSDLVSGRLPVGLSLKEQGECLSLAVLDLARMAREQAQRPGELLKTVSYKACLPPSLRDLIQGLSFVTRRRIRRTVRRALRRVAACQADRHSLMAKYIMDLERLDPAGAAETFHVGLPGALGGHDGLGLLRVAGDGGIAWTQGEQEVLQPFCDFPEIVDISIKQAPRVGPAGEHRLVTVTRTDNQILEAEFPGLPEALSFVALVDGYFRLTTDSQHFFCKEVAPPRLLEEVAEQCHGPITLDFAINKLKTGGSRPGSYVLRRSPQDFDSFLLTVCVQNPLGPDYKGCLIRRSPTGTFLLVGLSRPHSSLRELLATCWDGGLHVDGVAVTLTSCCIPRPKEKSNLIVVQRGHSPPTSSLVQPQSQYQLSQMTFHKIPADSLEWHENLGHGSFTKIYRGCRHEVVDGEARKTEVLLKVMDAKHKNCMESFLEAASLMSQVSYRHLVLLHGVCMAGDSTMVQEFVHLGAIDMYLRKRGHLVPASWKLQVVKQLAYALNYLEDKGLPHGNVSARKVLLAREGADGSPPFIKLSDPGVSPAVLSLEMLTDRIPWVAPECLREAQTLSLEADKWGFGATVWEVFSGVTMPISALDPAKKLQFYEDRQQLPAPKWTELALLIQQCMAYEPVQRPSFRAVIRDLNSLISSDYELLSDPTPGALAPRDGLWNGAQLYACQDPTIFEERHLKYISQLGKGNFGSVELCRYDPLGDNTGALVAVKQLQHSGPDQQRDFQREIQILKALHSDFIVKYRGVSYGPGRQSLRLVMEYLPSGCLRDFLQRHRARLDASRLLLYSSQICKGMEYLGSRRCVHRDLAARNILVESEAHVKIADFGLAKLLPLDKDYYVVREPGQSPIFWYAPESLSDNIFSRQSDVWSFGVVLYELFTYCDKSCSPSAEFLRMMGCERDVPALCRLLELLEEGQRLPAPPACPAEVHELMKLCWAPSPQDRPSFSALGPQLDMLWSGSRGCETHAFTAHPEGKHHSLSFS
SMILES,observed,technique,setting,added,IC50
Cc1ccc2oc(-c3c4c(N)n[nH]c(=O)c4nn3-c3ccc(NC(=O)/C=C/CN(C)C)cc3)c(C)c2c1,enzyme activity,FRET,,,> 1000 nM
Cc1cnc(Nc2cc(C)c(C)c(C)c2)nc1Nc1ccc2oc(=O)[nH]c2c1,enzyme activity,,,ATP 1 mM,> 10000 nM
CN(C1COC1)C(C)(C)/C=C(\C#N)C(=O)N1CCC[C@H]1Cn1nc(-c2ccc(Oc3ccccc3)cc2F)c2c(N)ncnc21,enzyme activity,,,,> 3000 nM
CCn1c(C)c(C(=O)c2ccccc2)c(=O)n1-c1cccc(S(N)(=O)=O)c1,enzyme activity,ADP detection,,,15.8 nM
CN(C(=O)c1ccn2ncc(-c3ccc(C(N)=O)cc3)c2c1)c1ccc(C#N)cn1,enzyme activity,,,,> 10000 nM
C=CC(=O)Nc1cccc(Cn2ncc3cnc(Nc4cnn(CCOC)c4)nc32)c1,kinase activity,,,1 mM ATP,10.8 nM
Cc1nn(C)c(O)c1-c1nc2cc(Cl)c(Cl)cc2[nH]c1=O,enzyme activity,ADP detection,,,14.9 nM
CCn1c(C)c(C(=O)c2ccccc2)c(=O)n1-c1ccc(C)c(C)c1,enzyme activity,ADP detection,,,18.4 nM
N#C/C(=C\c1cccc(-c2cnc3[nH]cnc3c2)c1)C(N)=O,,,mean of two experiments,ATP at Km,93 nM
COc1cccc2[nH]cc(-c3nc4ccccc4[nH]c3=O)c12,enzyme activity,ADP detection,,,20 to 28 nM

# For quick reference, copied from above:
SMILES,observed,technique,setting,added,IC50
Cc1ccc2oc(-c3c4c(N)n[nH]c(=O)c4nn3-c3ccc(NC(=O)/C=C/CN(C)C)cc3)c(C)c2c1,enzyme activity,FRET,,,> 1000 nM
